Results pooled from the literature.
Parts stem from different laboratories: compare values within a part only.

Sample 1 — method: RNA Bind-n-Seq; form: RNA; matrix: in vitro; concentration: 365 nM; relative to: no-protein control; reading: higher = stronger binding
Target: RNA binding protein fox-1 homolog 2, RRM domain, GST-SBP tag (RBFOX2, Homo sapiens, UniProt O43251-10, residues 100-194)
Setting: natural RNA segment, single round, ends assumed
Shared flanks, not repeated: GGGAGUUCUACAGUCCGACGAUC … UGGAAUUCUCGGGUGCCAA
Residues (chain): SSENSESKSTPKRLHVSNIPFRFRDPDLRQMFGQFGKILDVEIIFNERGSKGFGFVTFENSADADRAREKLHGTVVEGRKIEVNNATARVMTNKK
| Oligonucleotide | RBNS enrichment (R) |
| --- | --- |
| ACUACACAGUGUGCACACACUGGGGACUCCCCAGUCCUCCUGACUAUUAUGGGGACACAGGAAAGACCUCAGCCUCAGUUGUAAACCUGCUCUUUGUCUGCUCAAAGGAA | 0.239 |
| CCUCCAGAUAGCAAGAGGUUUCUAGGGAAGUCACCUCACAGCAGGCUUGCAGUAUGUCCAGCUGGUUGGCAAACACGAGGAAGCUGCAGGGCUGGACCAUGUGGCCAAGC | 0.563 |
| AUGUCCCCAACUCAAGGCUAGAAAACAGCAAGAUGGAGAAAUAAUGUUCUGCUGCGUCCCCACCGUGACCUGCCUGGCCUCCCCUGUCUCAGGGAGCAGGUCACAGGUCA | 0.207 |
| GUCAUGGGACCUCAGUAACGAGGACCCCUAAUUUAUAAAGUACCAGAAAUGUGGGGAAGAAAGCAAUUUGAGCAGUAUGUAGCCUACUCACAUGGGCUCUUUUUCAGGUU | 0.807 |
| AAAACCUGUGCCCUCAGCCACUUCGAAUGCCAGCCACCUUCUGGUUCUAAAACGGGGAGUGGUCUGAAUGAACACAGCUGACCCCUUUCCCGCGCACUGAAAGGGCAGAG | 0.443 |
| GCAAGGAAGGCCUCACACUGUCCAGCAUACUCCAGCCUGAAUUGCCUACUGGGUUCUCAGGGGGCAGACAGGUCCUGGCCGAAAGUCUUACCAUGGGGAUCGAUAGGGUG | 0.35 |

Sample 2 — method: competition protein-binding microarray; form: double-stranded DNA, one strand shown; matrix: in vitro; concentration: 2 µM; together with: Cbf1 competitor, 0.05 µM; reading: higher = stronger binding
Target: Phosphate system positive regulatory protein PHO4, full length, GST-tagged (PHO4, Saccharomyces cerevisiae, UniProt P07270, residues 1-312)
Setting: whole 60-bp probe, lowest competitor level
Residues (chain): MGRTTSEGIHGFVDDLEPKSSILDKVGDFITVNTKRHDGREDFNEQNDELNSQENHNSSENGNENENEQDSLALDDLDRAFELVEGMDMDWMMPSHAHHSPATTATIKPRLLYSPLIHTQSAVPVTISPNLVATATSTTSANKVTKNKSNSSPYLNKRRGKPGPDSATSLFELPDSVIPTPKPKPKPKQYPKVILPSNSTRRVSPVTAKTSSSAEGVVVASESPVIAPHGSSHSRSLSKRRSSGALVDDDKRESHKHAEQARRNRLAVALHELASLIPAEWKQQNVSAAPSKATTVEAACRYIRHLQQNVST
| Oligonucleotide | fluorescence intensity [a.u.] |
| --- | --- |
| TGAACCAGTCAATATCACACTTCCAAATGGTTTGACGTCTTGATTCGCTTGACGCTGCTG | 3810 |
| AAATTACTAAGTTGTATCGTGGGTGACGCCGTATGAGTCTTGATTCGCTTGACGCTGCTG | 7180 |
| TTTAGGCCGCAGTGGGTCGTGCCAGACGGCAGCGATGTCTTGATTCGCTTGACGCTGCTG | 7250 |
| ACTTTAAGACGAGACCTCGTGGAACCAAGATCGGTGGTCTTGATTCGCTTGACGCTGCTG | 12900 |

Other studies, line by line
UNK zinc fingers 1-6, SBP tag: RING finger protein unkempt homolog, zinc fingers 1-6, SBP tag (UNK, Homo sapiens, UniProt Q9C0B0, residues 30-357)
UniProt Q9C0B0, sequence (30-357, looked up): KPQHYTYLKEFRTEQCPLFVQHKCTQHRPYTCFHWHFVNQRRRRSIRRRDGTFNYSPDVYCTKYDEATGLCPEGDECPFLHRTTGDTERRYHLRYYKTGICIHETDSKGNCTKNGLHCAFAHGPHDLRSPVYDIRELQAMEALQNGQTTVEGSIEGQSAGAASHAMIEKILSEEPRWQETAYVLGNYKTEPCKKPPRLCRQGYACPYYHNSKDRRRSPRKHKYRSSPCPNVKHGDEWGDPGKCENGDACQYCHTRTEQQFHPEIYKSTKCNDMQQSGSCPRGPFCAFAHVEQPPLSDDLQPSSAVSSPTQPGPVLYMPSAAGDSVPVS
| Substance | target | assay | test system | setting | scale | measurement | value |
| --- | --- | --- | --- | --- | --- | --- | --- |
| GGGAGUUCUACAGUCCGACGAUCUCUCUUCUCCCCUGUCCUGAUUUUAAAAGCCCUUCUUUUUUUUUUUCUUUUUUCUUUUUUUAGGCAUAUGUAGUAAUAUUAGAAACAUUUAAUUUGGGAAACUUUGAUUCUUGAAAGAGACAACAGAGGAUUGAGCAUCA | UNK zinc fingers 1-6, SBP tag | RNA Bind-n-Seq | RNA, in vitro | 100 nM, RNA with constant flanks, vertebrate orthologous sites, ends assumed | relative to: input RNA pool, higher = stronger binding | bound/input enrichment | 1.95 ratio |
| PhoQ, residues 284 288 289 292 302 303 GNNTDL | PhoP, residues 12 14 15 18 19 TTLRV (Escherichia coli, UniProt P23836) | Sort-seq, measured: YFP reporter | E. coli | PhoQ-PhoP variant library, together with: 10 µM Mg2+ | relative to: high Mg2+ state, higher = stronger signaling | fold induction | 3.15 |
| GGGAGUUCUACAGUCCGACGAUCGAAACAAUGGCUCCUACUCUAUUACAAAGACAAGAAACAGUCCCACAAGUUAAUAAUAGAUAGCUAUUUUUGAAAUUCAAAUAUUUAAAUUUUGUAAAUCAGCUGUUUGGGAUGUCAUGUCAACAGAGGAUUGAGCAUCA | UNK zinc fingers 1-6, SBP tag | RNA Bind-n-Seq | RNA, in vitro | 100 nM, RNA with constant flanks, vertebrate orthologous sites, ends assumed | relative to: input RNA pool, higher = stronger binding | bound/input enrichment | 0.723 ratio |

For quick reference, copied from above (sample 1):
| Oligonucleotide | RBNS enrichment (R) |
| --- | --- |
| CCUCCAGAUAGCAAGAGGUUUCUAGGGAAGUCACCUCACAGCAGGCUUGCAGUAUGUCCAGCUGGUUGGCAAACACGAGGAAGCUGCAGGGCUGGACCAUGUGGCCAAGC | 0.563 |
| AUGUCCCCAACUCAAGGCUAGAAAACAGCAAGAUGGAGAAAUAAUGUUCUGCUGCGUCCCCACCGUGACCUGCCUGGCCUCCCCUGUCUCAGGGAGCAGGUCACAGGUCA | 0.207 |
